Results from different studies.
Each numbered part is a random draw from the data of one study; scales do not carry over between parts.

Series 1
Target: Interferon regulatory factor 7, full length, phosphomimetic (IRF7, Homo sapiens, UniProt Q92985, residues 1-503, S101K/S471D/S472D/S475D/S476D/S477D/S483D/S484D/S487D)
Technique: protein-binding microarray
Molecule type: double-stranded DNA, one strand shown
Sample: in vitro
Tested at: 250 nM
Notes: 60-bp whole probe
Together with: salmon DNA 0.4 mg/ml
Relative to: random background probes
Direction: higher = stronger binding
All sequences stand within: GCCTAGCAC … GTCTTGATTCGCTTGACGCTGCTG
Target sequence (chain): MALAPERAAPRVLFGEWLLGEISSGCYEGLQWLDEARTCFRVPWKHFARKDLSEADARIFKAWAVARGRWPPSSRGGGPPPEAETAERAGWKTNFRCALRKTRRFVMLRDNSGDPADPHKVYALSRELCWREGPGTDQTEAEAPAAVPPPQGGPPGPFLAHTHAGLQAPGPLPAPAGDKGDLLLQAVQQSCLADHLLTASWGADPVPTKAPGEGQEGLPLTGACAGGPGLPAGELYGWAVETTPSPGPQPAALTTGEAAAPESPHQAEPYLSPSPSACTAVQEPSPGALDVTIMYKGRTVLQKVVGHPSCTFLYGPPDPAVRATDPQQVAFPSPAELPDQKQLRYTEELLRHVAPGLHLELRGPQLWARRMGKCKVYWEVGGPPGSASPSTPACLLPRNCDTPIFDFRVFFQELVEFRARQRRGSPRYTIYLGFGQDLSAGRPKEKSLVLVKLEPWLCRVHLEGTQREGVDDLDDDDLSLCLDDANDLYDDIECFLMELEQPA
Sequence | log fluorescence
GACGAACAGGGGTATCGAGACGTGCTA | -0.593 z-score
TTAGATTTCAGCATCGATTAGTGCTAG | 0.465 z-score
TTATATTTCGGGTTTCGATTAGTGCTA | 7.74 z-score
GACGGACTGGGGACTGGAGACGTGCTA | -0.766 z-score
TGTGTTATTAAATTTTCACGGGTGCTA | 0.523 z-score
GACGGTTTCGGTATTGGGACGTGCTAG | 10.3 z-score
TCATTTTTAGCTTGCAAACTGTGCTAG | 0.317 z-score
TAAGGTTTCGACTATCGGTTAGTGCTA | 5.97 z-score
TTAGAACTGGGATATCGATTAGTGCTA | -0.0895 z-score
TCAATTTTCGTTTTGTGACTGTGCTAG | 11.4 z-score
GACGCTCTCCTTCTCCTGACGTGCTAG | 0.285 z-score
GACGGTTTCAGACTGGAGACGTGCTAG | 0.536 z-score
TCAAGTTTACCCATCTCCAGGTGCTAG | 0.435 z-score
TTAGGACTGCACTATCGGTTAGTGCTA | -0.52 z-score
TTAGATATCGGGACTGGATCAGTGCTA | -0.147 z-score
TTAGAACTGCTACTGCTTTAGTGCTAG | -0.21 z-score
GACGGACTGGGGTTTCTGGACGTGCTA | -0.809 z-score

Series 2
Target: RING finger protein unkempt homolog, zinc fingers 1-6, GST-SBP tag (UNK, Homo sapiens, UniProt Q9C0B0, residues 30-357)
Chain of UniProt Q9C0B0 (30-357, looked up): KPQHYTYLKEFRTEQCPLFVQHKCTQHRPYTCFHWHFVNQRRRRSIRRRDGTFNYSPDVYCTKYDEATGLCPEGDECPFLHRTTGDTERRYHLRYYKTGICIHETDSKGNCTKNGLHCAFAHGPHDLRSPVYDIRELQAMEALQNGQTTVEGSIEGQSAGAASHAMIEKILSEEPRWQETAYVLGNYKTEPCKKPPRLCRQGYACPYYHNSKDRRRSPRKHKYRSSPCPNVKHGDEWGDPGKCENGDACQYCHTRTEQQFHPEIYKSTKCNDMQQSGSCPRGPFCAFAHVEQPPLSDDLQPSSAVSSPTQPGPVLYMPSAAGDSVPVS
Technique: RNA Bind-n-Seq
Molecule type: RNA
Sample: in vitro
Tested at: not given
Notes: RNA with constant flanks, ends assumed
Relative to: input RNA pool
Direction: higher = stronger binding
Sequence | bound/input enrichment [ratio]
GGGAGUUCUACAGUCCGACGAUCAAUGAAACUGCAGAAAAAACCCUGGGAGUCCUGGCAGAUGAAGACAACACAUUGCAACAAAACCGCAGCAGCAGAAAUACCAGCUACAGCAGUGCAGUGCAAAAAGAAAUCACACUGCCUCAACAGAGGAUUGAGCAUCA | 0.17
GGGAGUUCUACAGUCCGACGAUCGUCAACCGUGUUACCAUACUGUGUGACAAAUUUAGUGGCCAUCCCAAAGGGUUUGCGUAUACCGAGUUCUCAGACAAAGAGUCAGUGAGGACUUCCUUGGCCUUAGAUGAGUCCCUAUUUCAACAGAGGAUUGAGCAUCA | 0.42
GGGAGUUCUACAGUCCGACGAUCGGUUCUCUGCCCCCACCCCCGGCCCUUUGUUUGACUUGCGUCGUCUGAUACUCAGUAUUGCCGCUUUUUGUCCGCAUGUUACUCCCUGUAAAUACGCUGUUAUACAUACUGUUAACACCCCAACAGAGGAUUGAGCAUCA | 1.02
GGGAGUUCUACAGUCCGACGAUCUAUGCCUUCACCAGCUAUGGCAUUAGCCCACAGGCCAAGAUAACUUAUAAUAUCAAAAUGAACCGAAGAAAAUGUGUUCACUGGAAACUGGCUGUUGAGCCCCUCCAAUGGGAGCUGAGGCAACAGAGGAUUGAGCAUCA | 0.336
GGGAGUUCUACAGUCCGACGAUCUAUCCUAUUGCGGUGCUCAUAGAUGAACUCCGCAAUGAGGACGUUCAGCUUCGUCUCAACCGUAUCAAGAAGCUCUCCACAAUUGCCUUGGCCCUUGGGGUUGAACGGACCAGAAGUGAGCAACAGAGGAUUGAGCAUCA | 0.123
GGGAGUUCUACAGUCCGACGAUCACAGUUAGCAAGCGAAGUGUUAAAUGGAGAAGAUGCUUGUUUUUAUUAAACAUUUGGAGAUUCCGAUAAUUUACAUUUUAACUGAAUGUCUAAAGUGAUUAUCUUCCCCUCCCUCCCCCACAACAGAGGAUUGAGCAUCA | 0.328
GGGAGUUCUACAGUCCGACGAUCCAUCUGUUUUUUAAAUUACAUUUUUGUUUAUGUUCUUGAGCUGAUGUAGUGGAACUUGCCCCGCACAUUCAGGUCCCAGCCAGUUGGCAGAGCAUGCUCUCAUCUCCUUAUUCCAUACCCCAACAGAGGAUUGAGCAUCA | 0.501
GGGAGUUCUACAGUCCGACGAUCGUCAAGGCCAAAACACUAAGAAAGCUGAUCCAGCAAACAUUCAGGCAGUUUGCCAACCUUAACCGAGAAGAAAGCAUCCUGAAAUUCUUUGAGAUUCUUUCUCCUGUGUACAGAUUUGACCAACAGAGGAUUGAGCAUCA | 0.469

Series 3
Target: RNA binding protein fox-1 homolog 2, RRM domain, GST-SBP tag (RBFOX2, Homo sapiens, UniProt O43251-10, residues 100-194)
Technique: RNA Bind-n-Seq
Molecule type: RNA
Sample: in vitro
Tested at: 365 nM
Notes: natural RNA segment, single round, ends assumed
Relative to: no-protein control
Direction: higher = stronger binding
Target sequence (chain): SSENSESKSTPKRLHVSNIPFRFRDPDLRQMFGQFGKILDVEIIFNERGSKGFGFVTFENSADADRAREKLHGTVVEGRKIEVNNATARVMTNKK
Sequence | RBNS enrichment (R)
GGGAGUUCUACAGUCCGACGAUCUCUGUGAUUGCUUUCUAGCCAAAGCGAAGCUUGUACAGGUUGAGUAUCCCUUAUCCAAAAUGCUUGGAACCAGAAGUGUUUCAAAUUUUAGAUUAUUUUCAGAUUUUGGAUGGAAUUCUCGGGUGCCAA | 0.385
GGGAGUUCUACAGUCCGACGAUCUUGGUGUCAUUUUCAGGCGGGCCCCUCUCUGAUUCCUCGGUCUGGAAAUAAACGCCAGGAAACAGCCUGUGUUGUGGUUUCAUUACAUGUGUACCGCAGGACAAGGGAGGUGGAAUUCUCGGGUGCCAA | 0.265
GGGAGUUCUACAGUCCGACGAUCGAAGUUCUGCCUCUGAUGUAUUUUGUGAGUUUGUUUCUUUGAAUUUUCAUUUUACAGUUACUUUUCCUUGCAUACAAACAAGCAUAUAAAAUGGCAACAAACUGCACAUGUGGAAUUCUCGGGUGCCAA | 0.451
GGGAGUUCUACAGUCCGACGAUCCUUUUUUUUUUUUUUUCAUCGAAGGCCUAAAAUGAUCGCGAUUCGAAAAAACAACGAGAAAAUGACGUCGCUCCAUUUCAACCCCACUCCUACCCCUUUCCUCACCCCCAUGGAAUUCUCGGGUGCCAA | 0.456
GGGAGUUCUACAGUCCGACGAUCUAUUACAAAGUCAAUUAAAACUUUUCAUUCAAGGUUUUUGAGCCAAACUAGAAGUUGAGAUUGUAAAACUGCUUUAAGAACUUUAAAGAAAUGAAUAUUUGAUCUCUGAUUGGAAUUCUCGGGUGCCAA | 0.911
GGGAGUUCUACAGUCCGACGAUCGUCUUAUGCAUAUACGUAAUGUCACCUAUUUAGGUAUCAUCCUAUUUGAGAGUUUGAGGAACUGAAACGUGUUGUGUUCAAGCAGCCUGGUGGCUAGUGCCUUCAUAUUAUGGAAUUCUCGGGUGCCAA | 0.75
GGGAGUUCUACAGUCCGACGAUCUUUUGUCUACGGCCUGGGAAGAUGUUCUCCAGCCCCUGAGCCUAUUGGUUGGAUAGAGAGAGACUGUGGUGGAAAUGAGGGUCUUGCUGGGAGGGGUCCAUGACUCCGGGUGGAAUUCUCGGGUGCCAA | 0.646
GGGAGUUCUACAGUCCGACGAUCCCAGAUCGCCCUGCCUAUCCACAAAGUAGAUGACCAAUGCACGCUCCUCAAACAUCUUUGGAGGAACUACCUGGCCAAAACACUGGCCAGGAUGCAGCAAGCAGCAGCAGUGGAAUUCUCGGGUGCCAA | 0.544

Series 4
Target: PABPC1L2, full length, GST fusion (mouse, UniProt A0ABA7IW68)
Technique: RNAcompete
Molecule type: RNA
Sample: in vitro
Tested at: 20 nM
Notes: 7-mer, probes averaged, single round
Relative to: mean of 7-mers
Direction: higher = stronger binding
Residues (chain): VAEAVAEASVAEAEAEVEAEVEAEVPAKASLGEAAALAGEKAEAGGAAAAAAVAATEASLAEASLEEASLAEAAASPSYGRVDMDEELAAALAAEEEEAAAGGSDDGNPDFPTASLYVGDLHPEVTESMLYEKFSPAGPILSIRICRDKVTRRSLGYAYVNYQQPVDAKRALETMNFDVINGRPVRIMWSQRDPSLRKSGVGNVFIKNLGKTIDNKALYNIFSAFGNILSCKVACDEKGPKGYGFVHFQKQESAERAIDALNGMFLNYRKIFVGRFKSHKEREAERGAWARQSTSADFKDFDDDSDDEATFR
Sequence | 7-mer Z-score
UGUCAUC | -0.267
CCAUAAG | -0.226
CACUACU | -0.248
GUGUCCG | -0.253
GUGUCAG | -0.139
CCGUGAC | -0.175
UCAUAUC | -0.302
UGUUGCC | -0.36
CACCUCC | -0.354
CUUUGAU | -0.113
ACUGCGC | -0.224
GUCAAAA | 2.36
AUCCCGC | -0.45
GCCAAGU | -0.157
ACAAACU | 0.62
UAGAAUG | -0.11
AAUAUUU | 0.0623
CUACCGU | -0.248
GCAACUC | -0.208
UUCCGAA | -0.012
AGAUCAG | -0.211
AUAACUU | -0.0609

Excerpt of the above (series 4):
Sequence | 7-mer Z-score
UGUCAUC | -0.267
CCAUAAG | -0.226
CACUACU | -0.248
GUGUCCG | -0.253
GUGUCAG | -0.139
CCGUGAC | -0.175
UCAUAUC | -0.302
UGUUGCC | -0.36
CACCUCC | -0.354
